Results gathered from unrelated publications.
Every numbered part comes from another study and shows a few of its results, in no order. Substitutions count along the parent as printed.

Series 1
Target: CCNB1, cyclin fold, Cln2 fusion (human)
Technique: yeast growth competition, sequencing
Medium: yeast
Notes: strong parent motif
Reference: not given
Reading: higher = stronger binding
Quantity: normalised enrichment score
Starting sequence: viral docking peptide; YKVKRRLVFGADD; partner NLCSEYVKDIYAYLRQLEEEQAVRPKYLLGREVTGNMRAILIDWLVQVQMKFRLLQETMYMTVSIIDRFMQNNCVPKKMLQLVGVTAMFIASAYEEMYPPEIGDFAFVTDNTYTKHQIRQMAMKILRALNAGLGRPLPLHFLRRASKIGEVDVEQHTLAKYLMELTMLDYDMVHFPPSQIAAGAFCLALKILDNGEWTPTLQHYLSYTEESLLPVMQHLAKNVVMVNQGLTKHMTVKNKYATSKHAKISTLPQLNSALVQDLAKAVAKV
Change = R5V; result = 1.85
Change = R5C; result = 2.36
Change = G10N; result = 3.95
Change = F9P; result = 0.374
Change = V8Y; result = 3.72
Change = D12H; result = 2.24
Change = A11N; result = 4.29
Change = R6C; result = 2.37
Change = G10M; result = 3.14
Change = K2E; result = 4.71
Change = V8C; result = 3.5
Change = L7H; result = 0.277
Change = R6A; result = 1.54
Change = A11I; result = 3.53
Change = D12T; result = 2.77
Change = R5A; result = 0.912
Change = L7A; result = 0.191
Change = L7D; result = 0.0507
Change = G10E; result = 4.85

Series 2
Target: tungstate, free oxyanion
Technique: microfluidic competitive inhibition
Medium: in vitro, cell-free expressed
Concentration: not given
Notes: derived from inhibition constants, unchanged parent 2230 nM
Reading: lower = stronger binding
Quantity: oxyanion analog dissociation constant
Starting sequence: PafA, mature enzyme, eGFP fusion (Elizabethkingia meningoseptica, UniProt Q9KJX5); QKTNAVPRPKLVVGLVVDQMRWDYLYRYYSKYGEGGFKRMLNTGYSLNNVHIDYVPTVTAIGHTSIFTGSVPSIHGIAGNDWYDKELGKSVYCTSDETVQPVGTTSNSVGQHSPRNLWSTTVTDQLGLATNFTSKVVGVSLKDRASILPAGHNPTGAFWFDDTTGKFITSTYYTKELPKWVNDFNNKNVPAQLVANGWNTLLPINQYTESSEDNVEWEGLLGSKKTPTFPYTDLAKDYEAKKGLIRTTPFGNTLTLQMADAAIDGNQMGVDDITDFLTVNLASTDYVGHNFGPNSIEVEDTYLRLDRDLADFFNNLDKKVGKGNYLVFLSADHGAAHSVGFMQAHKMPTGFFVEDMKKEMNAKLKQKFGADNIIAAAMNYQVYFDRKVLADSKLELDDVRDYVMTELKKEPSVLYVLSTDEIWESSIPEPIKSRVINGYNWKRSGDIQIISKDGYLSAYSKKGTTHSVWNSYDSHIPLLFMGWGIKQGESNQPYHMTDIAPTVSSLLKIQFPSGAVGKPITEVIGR
Change = D237V; result = 1.3 µM
Change = N182V; result = 2.3 µM
Change = W217G; result = 475 nM
Change = D397G; result = 2.1 µM
Change = I520V; result = 2.39 µM
Change = K89V; result = 2.5 µM
Change = G103V; result = 2.19 µM
Change = A390G; result = 2.14 µM
Change = V382A; result = 1.59 µM
Change = Y29V; result = 1.89 µM
Change = A500G; result = 1.89 µM
Change = E395G; result = 1.92 µM
Change = V339G; result = 1.86 µM
Change = Q257G; result = 2.28 µM
Change = R526G; result = 2.36 µM
Change = A5G; result = 2.34 µM
Change = E86G; result = 1.76 µM
Change = Y173V; result = 1.83 µM
Change = L364G; result = 1.82 µM
Change = K462V; result = 2.53 µM
Change = E522V; result = 6.49 µM
Change = E239V; result = 2.06 µM
Change = G321A; result = 2.04 µM
Change = F184V; result = 1.38 µM
Change = S433V; result = 1.73 µM

Series 3
Target: CREBZF, bZIP domain (human)
Technique: DHFR protein complementation
Medium: yeast
Notes: single substitutions, most at no-binding floor
Reference: wild-type JUN-FOS pair
Reading: higher = stronger binding
Quantity: binding fitness
Starting sequence: JUN, bZIP domain (human); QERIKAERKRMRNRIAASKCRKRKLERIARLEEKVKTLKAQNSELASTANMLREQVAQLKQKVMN; partner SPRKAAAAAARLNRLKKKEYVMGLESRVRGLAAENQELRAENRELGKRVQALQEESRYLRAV
Change = M51W; result = -1.36 natural log
Change = L31K; result = -1.49 natural log
Change = S47W; result = -1.47 natural log
Change = L31R; result = -1.52 natural log
Change = K34R; result = -1.53 natural log
Change = V35W; result = -1.53 natural log
Change = T48K; result = -1.56 natural log
Change = M51K; result = -1.49 natural log

Other studies, line by line
Molecule = nisin; test = lipid II binding, isothermal titration calorimetry; system = DOPC vesicles with lipid II; quantity = Kd; result = 70 nM

For quick reference, copied from above (series 1):
Change = L7H; result = 0.277
Change = R6A; result = 1.54
Change = A11I; result = 3.53
Change = D12T; result = 2.77
Change = R5A; result = 0.912
